Measurements pooled from the literature.
Protocols differ between the studies behind these lines. “And” joins repeats or separate records; there may be more than shown.
Target: Serine/threonine-protein kinase MRCK beta (CDC42BPB, Homo sapiens, UniProt Q9Y5S2)

Cc1ccc(-c2c(/C=C(\C#N)C(=O)NC(C)C)n(CCCO)c3ncnc(N)c23)cc1 — remaining binding (cell-free assay, competition with immobilised ligand; 1 µM): 96%
NC(=O)C[C@H]1CCc2sc3ncnc(O[C@H]4CC[C@H](N5CCOCC5)CC4)c3c21 — inhibition (enzyme activity, inhibitor; 10 µM): -1%
C=CC(=O)Nc1cc(-c2nn(C3CCN(CCNC(=O)[C@H](C)CCC45CC6CC(CC(C6)C4)C5)CC3)c3ncnc(N)c23)ccc1Oc1ccccc1 — inhibition (inhibitor, KiNativ profiling; biochemical; 2 µM): 1.8%
Nc1ncc(-c2cc(-c3cnn(CC(F)(F)F)c3)ncc2F)nc1C(=O)NC1CNCC(F)C1 (stereo not shown) — remaining activity (enzyme activity; 1 µM; relative to: DMSO control): 104%
Cc1cccc(O[C@H]2CCC[C@@H](C(C)CNCc3ccncc3)C2)c1 (relative stereo) — inhibition (enzyme activity, inhibitor; 1 µM): 4%
Cc1nc2c(F)cc(-c3nc(Nc4ccc(CNC(=O)CCCCCCC(=O)NO)cc4)ncc3F)cc2n1C(C)C — inhibition (enzyme activity, inhibitor; 1 µM): 66%
O=C(Cc1ccc(OCc2ccccc2)cc1)NC1(C(=O)O)CCN(C(=O)c2ccc(-c3cccc(Cl)c3)cc2)CC1 — activity vs control (enzyme activity, inhibitor; 10 µM): 107%
CNC(=O)C[C@H](Cc1ccc(C#N)cc1)NC(=O)c1cc(-c2ccc(CN[C@H](C)c3ccc(C)cc3)o2)ccc1Cl — activity vs control (enzyme activity, inhibitor; 1 µM): 103%
C=CC(=O)N1CCCC(n2c(=O)c3ncccc3n(Cc3ccc(Oc4ccccc4)cc3)c2=O)C1 (stereo not shown) — remaining binding (cell-free assay, competition with immobilised ligand; 1 µM): 97%
C=CC(=O)N1Cc2nc(-c3cc(-c4cc(Cl)cnc4Cl)c(F)cc3F)n(-c3ccncn3)c2C1 — inhibition (cell-free assay, inhibitor; 1 µM): 6.7%
COc1cc(Nc2nccc(-c3cnn4nc(OC)ccc34)n2)cc(C(F)(F)F)c1 — remaining binding (binding, competition with immobilised ligand; 1 µM): 88%
C=CC(=O)Nc1cccc(-c2cnc3[nH]cc(C(=O)NC(C)(C)C)c3n2)c1 — inhibition (kinase activity; 0.1 µM): 11% and 14%
CNC(=O)C1CCN(c2cc(C)c(F)cc2NC(=O)c2ccc(-c3cc(O)ccc3C)c(C)c2)CC1 — remaining binding (binding, competition with immobilised ligand; 1 µM): 100%
CC(C)=CC1OC(C)(C)C2C=C3C(=O)C(Cl)=CC(O)C3C3C(O)C4OC4C(=O)C132 (stereo not shown) — remaining binding (cell-free assay, competition with immobilised ligand; 10 µM): 100%
CNC1C[S+]2CC[S+]3CC[S+](C1)[Ru-4]321([N]=C=S)[n]2c3ccc(OC)cc3c3c4c(c5cc(F)c[n+]1c5c32)C(=O)NC4=O (stereo not shown) — remaining binding (KinomeScan; 0.1 µM; relative to: untreated): 100%
Nc1ncc2c(n1)-c1c([nH]c3ccc(C4=CCOCC4)cc13)CCC2 — remaining binding (binding, competition with immobilised ligand; 1 µM): 90%

Some of these lines once more:
Cc1nc2c(F)cc(-c3nc(Nc4ccc(CNC(=O)CCCCCCC(=O)NO)cc4)ncc3F)cc2n1C(C)C — inhibition (enzyme activity, inhibitor; 1 µM): 66%
O=C(Cc1ccc(OCc2ccccc2)cc1)NC1(C(=O)O)CCN(C(=O)c2ccc(-c3cccc(Cl)c3)cc2)CC1 — activity vs control (enzyme activity, inhibitor; 10 µM): 107%
